Measured values gathered from unrelated publications.
Every numbered part comes from another study and shows a few of its results, in no order. Substitutions count along the parent as printed.
UniProt P08922, sequence (whole entry, looked up): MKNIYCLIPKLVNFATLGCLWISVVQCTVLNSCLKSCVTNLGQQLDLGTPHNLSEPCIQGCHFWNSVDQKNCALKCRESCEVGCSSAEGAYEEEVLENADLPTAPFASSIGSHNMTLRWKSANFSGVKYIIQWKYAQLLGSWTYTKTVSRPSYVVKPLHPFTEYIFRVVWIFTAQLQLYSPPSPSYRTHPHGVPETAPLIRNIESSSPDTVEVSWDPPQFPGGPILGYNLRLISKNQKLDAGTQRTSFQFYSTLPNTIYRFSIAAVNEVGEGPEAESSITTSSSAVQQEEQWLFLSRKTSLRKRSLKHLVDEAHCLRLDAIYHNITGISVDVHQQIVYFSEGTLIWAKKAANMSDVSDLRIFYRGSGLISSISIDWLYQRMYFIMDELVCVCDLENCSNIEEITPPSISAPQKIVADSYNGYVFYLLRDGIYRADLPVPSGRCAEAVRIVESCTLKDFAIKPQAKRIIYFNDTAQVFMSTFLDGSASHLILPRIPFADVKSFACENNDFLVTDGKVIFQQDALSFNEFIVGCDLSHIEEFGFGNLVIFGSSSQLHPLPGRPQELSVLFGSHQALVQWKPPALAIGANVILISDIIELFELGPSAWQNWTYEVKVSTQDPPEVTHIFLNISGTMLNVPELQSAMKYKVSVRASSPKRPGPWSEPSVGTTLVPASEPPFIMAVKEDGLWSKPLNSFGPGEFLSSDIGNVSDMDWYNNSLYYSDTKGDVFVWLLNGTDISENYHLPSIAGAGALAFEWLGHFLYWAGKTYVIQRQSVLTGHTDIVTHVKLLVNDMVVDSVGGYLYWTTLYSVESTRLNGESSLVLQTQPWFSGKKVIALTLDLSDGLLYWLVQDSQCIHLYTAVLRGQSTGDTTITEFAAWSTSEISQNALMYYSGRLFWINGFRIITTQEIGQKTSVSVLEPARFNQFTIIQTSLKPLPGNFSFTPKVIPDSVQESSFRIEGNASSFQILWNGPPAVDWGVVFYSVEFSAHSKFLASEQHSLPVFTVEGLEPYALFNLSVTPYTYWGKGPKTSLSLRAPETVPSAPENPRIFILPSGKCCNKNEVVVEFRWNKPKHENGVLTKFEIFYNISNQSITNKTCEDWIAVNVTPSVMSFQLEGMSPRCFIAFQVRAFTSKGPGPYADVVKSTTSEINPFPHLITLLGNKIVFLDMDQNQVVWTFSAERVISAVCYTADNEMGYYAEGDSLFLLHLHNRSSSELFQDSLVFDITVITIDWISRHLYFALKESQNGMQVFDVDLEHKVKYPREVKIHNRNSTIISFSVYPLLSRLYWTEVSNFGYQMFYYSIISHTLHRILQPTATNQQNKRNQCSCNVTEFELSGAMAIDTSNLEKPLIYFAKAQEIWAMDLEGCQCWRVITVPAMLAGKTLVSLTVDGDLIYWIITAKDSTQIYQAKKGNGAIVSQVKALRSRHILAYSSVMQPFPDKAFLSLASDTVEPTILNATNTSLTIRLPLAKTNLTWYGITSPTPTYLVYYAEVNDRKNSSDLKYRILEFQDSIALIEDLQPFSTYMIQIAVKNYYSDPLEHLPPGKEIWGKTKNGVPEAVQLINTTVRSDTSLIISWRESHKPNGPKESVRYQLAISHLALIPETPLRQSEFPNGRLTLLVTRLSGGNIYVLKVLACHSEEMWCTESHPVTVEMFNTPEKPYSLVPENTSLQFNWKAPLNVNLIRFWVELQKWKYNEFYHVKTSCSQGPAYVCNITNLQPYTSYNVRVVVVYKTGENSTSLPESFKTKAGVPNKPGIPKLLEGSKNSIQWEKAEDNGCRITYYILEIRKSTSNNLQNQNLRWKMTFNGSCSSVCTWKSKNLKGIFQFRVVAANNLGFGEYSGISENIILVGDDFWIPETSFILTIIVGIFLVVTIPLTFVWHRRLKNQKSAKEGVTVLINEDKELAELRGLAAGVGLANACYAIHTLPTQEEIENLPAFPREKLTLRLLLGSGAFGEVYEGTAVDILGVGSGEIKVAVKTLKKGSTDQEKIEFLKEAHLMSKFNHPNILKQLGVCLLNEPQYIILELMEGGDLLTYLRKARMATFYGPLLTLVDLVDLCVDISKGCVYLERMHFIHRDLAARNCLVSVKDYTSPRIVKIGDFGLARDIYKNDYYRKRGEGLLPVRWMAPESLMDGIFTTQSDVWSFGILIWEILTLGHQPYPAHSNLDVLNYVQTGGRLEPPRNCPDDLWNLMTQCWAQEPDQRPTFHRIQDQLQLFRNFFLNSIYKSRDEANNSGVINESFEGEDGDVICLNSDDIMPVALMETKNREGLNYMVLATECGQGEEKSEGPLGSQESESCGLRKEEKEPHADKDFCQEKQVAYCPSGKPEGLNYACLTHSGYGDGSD
UniProt Q52WX2, sequence (whole entry, looked up): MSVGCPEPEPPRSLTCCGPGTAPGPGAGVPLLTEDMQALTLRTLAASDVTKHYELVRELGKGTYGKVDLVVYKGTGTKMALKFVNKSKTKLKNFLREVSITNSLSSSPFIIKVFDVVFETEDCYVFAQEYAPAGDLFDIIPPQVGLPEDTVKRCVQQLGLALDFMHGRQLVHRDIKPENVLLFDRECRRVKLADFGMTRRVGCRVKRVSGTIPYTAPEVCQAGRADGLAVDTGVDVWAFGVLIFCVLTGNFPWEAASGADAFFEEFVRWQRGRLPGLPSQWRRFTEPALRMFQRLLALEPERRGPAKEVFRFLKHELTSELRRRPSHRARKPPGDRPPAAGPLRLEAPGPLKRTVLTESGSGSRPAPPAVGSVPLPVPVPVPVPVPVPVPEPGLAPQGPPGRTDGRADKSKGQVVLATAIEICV
UniProt Q05513, sequence (whole entry, looked up): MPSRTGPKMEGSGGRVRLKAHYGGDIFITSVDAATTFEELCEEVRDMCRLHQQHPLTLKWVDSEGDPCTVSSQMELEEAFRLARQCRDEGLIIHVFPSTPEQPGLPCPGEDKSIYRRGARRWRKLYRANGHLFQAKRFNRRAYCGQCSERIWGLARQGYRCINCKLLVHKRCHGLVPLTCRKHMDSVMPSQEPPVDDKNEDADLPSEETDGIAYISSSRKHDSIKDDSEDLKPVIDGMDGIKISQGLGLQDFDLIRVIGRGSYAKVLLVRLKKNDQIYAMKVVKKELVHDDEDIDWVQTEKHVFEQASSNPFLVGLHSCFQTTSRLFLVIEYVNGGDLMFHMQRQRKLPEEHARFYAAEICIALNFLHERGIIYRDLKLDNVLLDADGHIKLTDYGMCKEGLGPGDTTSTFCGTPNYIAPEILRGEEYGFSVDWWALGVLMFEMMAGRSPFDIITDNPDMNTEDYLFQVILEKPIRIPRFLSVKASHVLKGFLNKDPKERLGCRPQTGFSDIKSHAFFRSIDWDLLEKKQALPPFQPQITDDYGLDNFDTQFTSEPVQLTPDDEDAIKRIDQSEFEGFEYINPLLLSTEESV
UniProt P42336, sequence (whole entry, unmodified, looked up): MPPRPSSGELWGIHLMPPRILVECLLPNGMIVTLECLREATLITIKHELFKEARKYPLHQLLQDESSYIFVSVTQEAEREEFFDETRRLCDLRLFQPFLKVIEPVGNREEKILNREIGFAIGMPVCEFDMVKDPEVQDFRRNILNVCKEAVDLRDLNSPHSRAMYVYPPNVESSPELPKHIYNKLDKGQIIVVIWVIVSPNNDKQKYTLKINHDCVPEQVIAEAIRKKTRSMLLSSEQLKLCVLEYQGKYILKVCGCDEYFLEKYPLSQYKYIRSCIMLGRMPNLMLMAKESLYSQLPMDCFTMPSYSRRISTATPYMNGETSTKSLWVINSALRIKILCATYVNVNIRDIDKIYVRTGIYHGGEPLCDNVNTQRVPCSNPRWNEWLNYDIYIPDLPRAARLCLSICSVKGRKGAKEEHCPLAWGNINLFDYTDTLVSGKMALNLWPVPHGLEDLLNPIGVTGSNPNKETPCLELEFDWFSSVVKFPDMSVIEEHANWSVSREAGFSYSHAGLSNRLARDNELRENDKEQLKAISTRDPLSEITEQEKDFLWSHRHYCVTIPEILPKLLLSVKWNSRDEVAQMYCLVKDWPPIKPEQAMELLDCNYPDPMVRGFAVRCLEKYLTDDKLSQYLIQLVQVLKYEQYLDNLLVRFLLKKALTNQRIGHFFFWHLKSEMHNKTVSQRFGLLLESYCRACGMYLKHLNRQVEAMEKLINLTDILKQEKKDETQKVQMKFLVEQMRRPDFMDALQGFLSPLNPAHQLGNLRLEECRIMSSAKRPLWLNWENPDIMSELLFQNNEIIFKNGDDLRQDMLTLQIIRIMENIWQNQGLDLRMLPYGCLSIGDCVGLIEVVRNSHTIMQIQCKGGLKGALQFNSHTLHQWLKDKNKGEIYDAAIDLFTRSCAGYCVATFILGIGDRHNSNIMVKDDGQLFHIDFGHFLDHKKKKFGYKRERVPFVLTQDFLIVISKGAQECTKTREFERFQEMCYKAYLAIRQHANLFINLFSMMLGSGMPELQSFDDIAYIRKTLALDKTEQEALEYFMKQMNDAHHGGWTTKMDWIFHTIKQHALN

Set 1
Change: D159G
Target: ABI1, truncated, D143A, DHFR fusion (Arabidopsis thaliana)
Technique: DHFR PCA, deep sequencing
Sample: yeast
Setting: methotrexate growth selection, single substitutions
Relative to: wild-type fitted maximum
Direction: higher = stronger binding
Measurement: relative binding score
Starting sequence: PYL1, truncated, DHFR fusion (Arabidopsis thaliana); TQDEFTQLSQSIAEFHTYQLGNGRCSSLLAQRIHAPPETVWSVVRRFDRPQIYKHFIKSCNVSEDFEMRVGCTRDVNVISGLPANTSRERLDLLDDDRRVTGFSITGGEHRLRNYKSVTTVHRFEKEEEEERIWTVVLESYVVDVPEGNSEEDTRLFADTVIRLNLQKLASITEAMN; partner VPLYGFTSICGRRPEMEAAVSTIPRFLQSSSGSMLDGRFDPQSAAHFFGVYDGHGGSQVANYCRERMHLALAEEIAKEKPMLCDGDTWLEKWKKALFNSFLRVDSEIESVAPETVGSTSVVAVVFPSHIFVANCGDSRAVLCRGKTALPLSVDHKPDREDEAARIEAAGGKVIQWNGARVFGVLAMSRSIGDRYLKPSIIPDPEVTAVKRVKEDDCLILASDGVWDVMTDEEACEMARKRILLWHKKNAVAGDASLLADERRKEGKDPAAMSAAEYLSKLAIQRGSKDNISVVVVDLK
with: (+)-ABA 58 µM: 57.6%
with: (+)-ABA 0.11 µM: -0.453%
with: (+)-ABA 710 µM: 89.6%
with: (+)-ABA 17 µM: 41.2%
with: (+)-ABA 4.8 µM: 10.6%
with: (+)-ABA 0.0091 µM: 1.84%

Set 2
SMILES: COc1ccc(S(=O)(=O)N(CCO)c2ccccc2CN(C)CC=Cc2ccc(Cl)cc2)cc1
Observed: enzyme activity
Mode: inhibitor
Tested at: 0.5 µM
Relative to: control
Measurement: remaining activity
Calcium/calmodulin-dependent protein kinase kinase 1 (CAMKK1, Homo sapiens, UniProt Q8N5S9): 106%
Ephrin type-A receptor 6 (EPHA6, Homo sapiens, UniProt Q9UF33): 95.3%
Mitogen-activated protein kinase kinase kinase 20 (MAP3K20, Homo sapiens, UniProt Q9NYL2): 97%
Protein kinase C zeta type (PRKCZ, Homo sapiens, UniProt Q05513): 100%

Set 3
Compound: Cn1cc(Cl)c2c(Oc3c(F)cc(Nc4cc(Cl)nc(N)n4)cc3F)ccnc21
Technique: competition with immobilised ligand
Tested at: 0.1 µM
Measurement: remaining binding
Megakaryocyte-associated tyrosine-protein kinase (MATK, Homo sapiens, UniProt P42679); cell-free assay: 97%
Proto-oncogene tyrosine-protein kinase ROS (ROS1, Homo sapiens, UniProt P08922); cell-free assay: 100%
Serine/threonine-protein kinase PAK 1 (PAK1, Homo sapiens, UniProt Q13153); cell-free assay: 100%
Mitogen-activated protein kinase kinase kinase 10 (MAP3K10, Homo sapiens, UniProt Q02779); cell-free assay: 100%
Serine/threonine-protein kinase 36 (STK36, Homo sapiens, UniProt Q9NRP7); cell-free assay: 93%
BMP-2-inducible protein kinase (BMP2K, Homo sapiens, UniProt Q9NSY1); cell-free assay: 100%
Non-receptor tyrosine-protein kinase TYK2, JH1 (TYK2, Homo sapiens, UniProt P29597); cell-free assay: 81%
Myosin-IIIa (MYO3A, Homo sapiens, UniProt Q8NEV4); binding: 100%
Phosphatidylinositol 4,5-bisphosphate 3-kinase catalytic subunit alpha isoform (PIK3CA, Homo sapiens, UniProt P42336, M1043I); cell-free assay: 64%
Leukocyte tyrosine kinase receptor (LTK, Homo sapiens, UniProt P29376); cell-free assay: 87%
Mitogen-activated protein kinase kinase kinase kinase 5 (MAP4K5, Homo sapiens, UniProt Q9Y4K4); cell-free assay: 91%
Serine/threonine-protein kinase SBK1 (SBK1, Homo sapiens, UniProt Q52WX2); cell-free assay: 97%
Phosphatidylinositol 4-kinase beta (PI4KB, Homo sapiens, UniProt Q9UBF8); cell-free assay: 100%

Set 4
Substance: PhoQ, residues 284 288 289 292 302 303 TVTVVA
Technique: Sort-seq
Item: YFP reporter
Sample: E. coli
Setting: PhoQ-PhoP variant library
With: 10 µM Mg2+
Relative to: high Mg2+ state
Direction: higher = stronger signaling
Measurement: fold induction
PhoP, residues 12 14 15 18 19 LFHKL (Escherichia coli, UniProt P23836): 1.17
PhoP, residues 12 14 15 18 19 QQAYL (Escherichia coli, UniProt P23836): 17.1
PhoP, residues 12 14 15 18 19 GMGLL (Escherichia coli, UniProt P23836): 5.01

A few entries again (set 4):
PhoP, residues 12 14 15 18 19 LFHKL (Escherichia coli, UniProt P23836): 1.17
PhoP, residues 12 14 15 18 19 QQAYL (Escherichia coli, UniProt P23836): 17.1
PhoP, residues 12 14 15 18 19 GMGLL (Escherichia coli, UniProt P23836): 5.01
